Published values pooled from the literature.
± marks the error that the study gave.
T1: SNCA mRNA 5' UTR IRE (Homo sapiens); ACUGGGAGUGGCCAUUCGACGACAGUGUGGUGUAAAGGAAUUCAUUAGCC

Compound = CCC1(O)CCCN(C(=O)c2cccc(C#N)c2)C1 (centres unmarked); target = DNA dC->dU-editing enzyme APOBEC-3B, C-terminal domain (Homo sapiens, UniProt Q9UH17); assay = binding, 1H CPMG NMR; setting = 20 µM protein; measurement = signal attenuation; value = 5.45 ± 4.46%
Compound = NC(=O)CN1C(=O)C(O)(CC(=O)c2cccc(N)c2)c2ccccc21 (centres unmarked); target = uncharacterized protein (Leishmania donovani, UniProt A0A3Q8IA09); assay = glutamine hydrolysis, inhibitor; setting = 100 µM, together with: glutamine substrate; measurement = kcat; value = 438.3 ± 1.33 s⁻¹
Compound = COc1ccc(S(=O)(=O)n2nc(OC(=O)c3cccc(-c4ccccc4)c3)cc2N)cc1; target = Genome polyprotein, NS2B-NS3 protease (dengue virus type 2, UniProt P29990); assay = ESI-TOF MS; setting = 20 µM, 1 h, 25 °C; how to read = relative to: DMSO control; measurement = protein mass shift; value = 180 Da
Compound = CC1CC(C)(C)N(C(=O)CN2C(=O)c3ccccc3C2=O)c2ccc(C(=O)N3CCN(C(=O)CCC4=[N+]5C(=Cc6ccc(-c7ccc[nH]7)n6[B-]5(F)F)C=C4)CC3)cc21 (centres unmarked); target = Mucolipin-1 (MCOLN1, Homo sapiens, UniProt Q9GZU1); assay = BRET; test system = HEK293T; setting = 1.3 and 0.67 µM; measurement = association rate constant; value = 4080 ± 2.5e+06 M⁻¹ s⁻¹
Compound = Cn1nnc(CN)c1C(F)(F)F; target = Dual specificity protein phosphatase 3 (DUSP3, Homo sapiens, UniProt P51452); assay = ligand-observed 19F NMR; setting = concentration not given, together with: DUSP3 4 or 8 µM; measurement = binding; value = active
Compound = CC(C)C[C@H](NC(=O)[C@H](CO)NC(=O)[C@H](CC(C)C)NC(=O)[C@@H]1CCCN1C(=O)CNC(=O)[C@@H](N)Cc1ccccc1)C(=O)N[C@@H](CCCNC(=N)N)C(=O)N[C@@H](CO)C(=O)N[C@@H](CCCCN)C(=O)O; target = Matrix metalloproteinase-9 (MMP9, Homo sapiens, UniProt P14780); assay = substrate, HPLC; setting = 500 µM, 72 h, pH 7.5, 37 °C; measurement = hydrolysis product; value = 100%
Compound = O=C(Cn1c2ccccc2c2ccccc21)N(c1ccc(F)cc1)c1ccc(F)cc1; target = Proteasome subunit alpha type-2/Proteasome subunit alpha type-6, 20S proteasome (Homo sapiens, UniProt P25787+P60900); assay = proteolysis, activator, fluorogenic peptide; test system = purified 20S proteasome; setting = up to 30 µM, together with: Suc-LLVY-AMC, Z-LLE-AMC, Boc-LRR-AMC; how to read = relative to: vehicle; measurement = maximum fold increase; value = 5.1 ± 1.1
Compound = CCCC[C@H](NC(=O)CNC(=O)CNC(=O)CN1CCN(CC(=O)O)CCN(CC(=O)O)CC1)C(=O)N[C@H]1CC(=O)NCCCC[C@@H](C(N)=O)NC(=O)[C@H](Cc2c[nH]c3ccccc23)NC(=O)[C@H](CCCNC(=N)N)NC(=O)[C@@H](Cc2ccccc2)NC(=O)[C@H](Cc2c[nH]cn2)NC1=O [gallium-67 labelled]; target = Melanocyte-stimulating hormone receptor (Mc1r, Mus musculus, UniProt Q01727); test system = mouse B16-F1 tumour; setting = dose not given, 2 h, together with: NDP-MSH 6.07 nmol; measurement = tumour uptake reduction; value = ~90.8%
Compound = O=C(Cc1c(-c2ccccc2)n[nH]c1-c1ccccc1)NO; target = Collagenase 3 (MMP13, Homo sapiens, UniProt P45452); assay = enzyme activity, inhibitor; setting = 10 µM; measurement = remaining activity; value = 75%
Compound = COc1ccccc1-c1cc(C(F)(F)F)nc(S(=O)(=O)CCCC(=O)Nc2ccc(F)cc2F)n1; target = Glucagon-like peptide 1 receptor (Rattus norvegicus, UniProt P32301); assay = cAMP accumulation, positive allosteric modulator; test system = INS-1 832/13; setting = 25 µM, together with: GLP-1(9-36); measurement = efficacy increase; value = 105%
Compound = CCCCCCCCCC(=O)Nc1ccc(OC)nc1C; target = Carboxylesterase 3 (CES3, Homo sapiens, UniProt Q6UWW8); assay = substrate; setting = 50 µM, pH 8, 37 °C, enzyme purity 3%; measurement = specific activity; value = 10 pmol/min/µg
Compound = CSCC[C@H](NC(=O)[C@H](CC(C)C)NC(=O)[C@H](Cc1c[nH]cn1)NC(=O)CNC(=O)[C@@H](NC(=O)[C@H](C)NC(=O)[C@H](Cc1c[nH]c2ccccc12)NC(=O)[C@H](Cc1c[nH]cn1)NC(=O)[C@H](CC(N)=O)NC(=O)CNC(=O)[C@H](CCCNC(=N)N)NC(=O)[C@@H]1CCCN1C(=O)[C@H](Cc1ccc(O)cc1)NC(=O)[C@H](CCSC)NC(=O)[C@H](CC(C)C)NC(=O)[C@@H](NC(=O)[C@H](CC(C)C)NC(=O)[C@@H](NC(=O)[C@@H](NC(=O)CNC(=O)CNC(=O)CNC(=O)[C@H](C)NC(=O)[C@@H]1CCCN1C(=O)[C@H](CC(C)C)NC(=O)[C@@H]1CCCN1C(=O)[C@@H](N)C(C)C)[C@@H](C)O)C(C)C)[C@@H](C)O)C(C)C)C(N)=O; target = Gastrin-releasing peptide receptor (GRPR, Homo sapiens, UniProt P30550, R287A); assay = calcium mobilization; how to read = relative to: R287A mutant over wild type; measurement = fold decrease in potency; value = 51 fold
Compound = O=C(O)Cc1cccc(O)c1; target = p-hydroxyphenylacetate 3-hydroxylase, reductase component (C1-hpah, Acinetobacter baumannii, UniProt Q6Q271); assay = ITC; setting = pH 7; measurement = -TΔS; value = 12.9 ± 2.1 kcal/mol
Compound = CC(C)C[C@H](NC(=O)[C@H](CC(C)C)NC(=O)[C@H](CCC(=O)O)NC(=O)[C@@H](N)CS)C(=O)O; target = PPO3 (Agaricus bisporus, UniProt C7FF04); assay = enzyme activity, inhibitor; setting = 100 µM; measurement = remaining activity; value = 59.5%
Compound = CCc1nc2cc3ccccc3cc2cc1C(=O)N1CCC[C@H]1C(=O)N[C@@H](C/C=C/C[C@H](NC(=O)[C@@H]1CCCN1C(=O)c1cc2cc3ccccc3cc2nc1CC)C(=O)N[C@@H](CCCCN)C(=O)NCCCN)C(=O)N[C@@H](CCCCN)C(=O)NCCCN; target = (CAG)10 RNA; assay = SPR; measurement = residence time; value = 330 s
Compound = Oc1c(C(Nc2nc3ccccc3s2)c2cccc(OCc3ccccc3)c2)ccc2cccnc12 (centres unmarked); target = Genome polyprotein, NS2B-NS3 protease (Dengue virus type 2, UniProt P14340); assay = substrate, tetrapeptide cleavage; setting = 1 µM, 37 °C, together with: 40 µM ZnCl2; measurement = kcat; value = 0.0987 ± 0.0021 s⁻¹
Compound = COc1ccc(-c2cc(C(=O)N[C@@H](Cc3ccccc3)C(=O)NC3CCCCC3)ccc2O)cc1; target = Transient receptor potential cation channel subfamily V member 1 (TRPV1, Homo sapiens, UniProt Q8NER1); setting = 12.5 µM; measurement = activity; value = inactive
Compound = Cc1cc(N2CC[C@](C#N)(C3(C)CC3)C2=O)cc(C(=O)NCc2cc(F)cc(-c3cnn(C)c3)c2)n1; target = Proline--tRNA ligase (Plasmodium falciparum, UniProt Q8I5R7); assay = thermal shift; setting = together with: L-proline and ATP 2 mM; measurement = melting temperature; value = 70.8 °C
Compound = CNc1ccccc1C(=O)O[C@H]1C[C@H](n2cnc3c(N)ncnc32)O[C@@H]1COP(=O)(O)OP(=O)(O)O; target = Unconventional myosin-Va (Gallus gallus, UniProt Q02440, D297C/G292C/I296C/S293C/V295G); assay = van't Hoff analysis; setting = concentration not given, together with: 2 mM Mg2+; measurement = ΔS of ligand binding; value = -9.7 ± 1.4 cal/(mol·K)
Compound = C=C1CN(S(=O)(=O)c2ccc(C)cc2)CCCN(Cc2ccccc2)CCCN(S(=O)(=O)c2ccc(C)cc2)C1; target = Endoplasmic reticulum lectin 1 (ERLEC1, Homo sapiens, UniProt Q96DZ1); assay = SILAC mass spectrometry; test system = SUP-T1, crude membrane fraction; setting = 10 µM, 17 h, reverse labelling; how to read = relative to: DMSO over compound; measurement = protein level ratio; value = 2.11
Compound = Cc1ccc(C(=O)Nc2cccc(C(F)(F)F)c2)cc1Nc1nc(-c2cccnc2)nc2c1cnn2C; target = Ephrin type-B receptor 4 (Mus musculus, UniProt P54761); assay = receptor phosphorylation, inhibitor; test system = mouse, lung; setting = oral, 50 mg/kg; measurement = lung tissue concentration; value = ~1 nmol/g
Compound = CC[C@H](C)[C@H](NC(=O)CNC(=O)[C@H](CCCNC(=N)N)NC(=O)[C@H](CCCCN)NC(=O)CNC(=O)[C@H](CC(N)=O)NC(=O)CNC(=O)CNC(=O)CNC(=O)[C@H](CC(C)C)NC(=O)[C@H](C)NC(=O)CNC(=O)[C@H](Cc1c[nH]c2ccccc12)NC(=O)[C@H](Cc1ccc(O)cc1)NC(=O)CNC(=O)[C@H](CCCNC(=N)N)NC(=O)[C@H](CCSC)NC(=O)CNC(=O)[C@H](CCCCN)NC(=O)[C@H](CC(N)=O)NC(=O)[C@H](Cc1ccccc1)NC(=O)[C@H](CCCCN)NC(=O)[C@@H](N)CC(N)=O)C(=O)N[C@@H](CCSC)C(=O)NCC(=O)N[C@@H](Cc1ccc(O)cc1)C(=O)N[C@@H](CC(=O)O)C(=O)O; target = Receptor tyrosine-protein kinase erbB-2 (ERBB2, Homo sapiens, UniProt P04626); assay = binding, SPR; measurement = koff; value = 0.0121 s⁻¹
Compound = CC[C@H](C)[C@H](NC(=O)[C@H](CCC(=O)O)NC(=O)[C@H](CC(=O)O)NC(=O)[C@H](CC(C)C)NC(=O)[C@@H](NC(=O)[C@H](CCCCN)NC(=O)[C@H](CCCCN)NC(=O)[C@@H](NC(=O)[C@H](CCC(=O)O)NC(=O)[C@H](CCC(=O)O)NC(=O)[C@H](CCC(=O)O)NC(=O)[C@H](CO)NC(=O)[C@H](CC(C)C)NC(=O)[C@H](CC(=O)O)NC(=O)[C@H](CC(C)C)NC(=O)CNC(=O)[C@H](CCCNC(=N)N)NC(=O)[C@H](CC(C)C)NC(=O)[C@H](CO)NC(=O)CNC(=O)CNC(=O)CNC(=O)CCCC[C@@H]1SC[C@@H]2NC(=O)N[C@@H]21)C(C)C)[C@@H](C)CC)C(=O)N[C@@H](C)C(=O)N[C@@H](CCCCN)C(=O)N[C@@H](CC(=O)O)C(=O)O; target = Fab B11 antibody (human); assay = binding, biolayer interferometry; how to read = relative to: alanine mutant over wild type; measurement = Kd ratio; value = 2.1
Compound = O=C(NCCCN1CCC(Cc2ccccc2)CC1)c1cccc2ccccc12; target = Sodium-dependent dopamine transporter (SLC6A3, Homo sapiens, UniProt Q01959); assay = dopamine uptake, inhibitor; test system = HEK293; setting = together with: [3H]dopamine; measurement = IC50; value = 8.09 µM
Compound = Nc1ncnc2c1ncn2[C@@H]1O[C@@H]2COP(=O)(O)O[C@H]3[C@@H](O)[C@H](n4cnc5cncnc54)O[C@@H]3COP(=O)(O)O[C@H]2[C@H]1O; target = ydaO riboswitch wild type (Bacillus subtilis); assay = competition gel-shift; setting = concentration not given; how to read = relative to: c-di-AMP; measurement = ΔΔG binding; value = 2.1 kcal/mol
Compound = N=C(N)c1ccc(Nc2ccc(-c3cc4ccc(C(=N)N)cc4[nH]3)cc2)cc1; target = T1, SNCA mRNA 5' UTR IRE (Homo sapiens); assay = competition with labeled RNA, competitor, competitive fluorescence assay; setting = together with: 2-aminopurine-labeled SNCA IRE RNA; measurement = Kd; value = 1.5 µM

Repeated from above:
Compound = CNc1ccccc1C(=O)O[C@H]1C[C@H](n2cnc3c(N)ncnc32)O[C@@H]1COP(=O)(O)OP(=O)(O)O; target = Unconventional myosin-Va (Gallus gallus, UniProt Q02440, D297C/G292C/I296C/S293C/V295G); assay = van't Hoff analysis; setting = concentration not given, together with: 2 mM Mg2+; measurement = ΔS of ligand binding; value = -9.7 ± 1.4 cal/(mol·K)
Compound = C=C1CN(S(=O)(=O)c2ccc(C)cc2)CCCN(Cc2ccccc2)CCCN(S(=O)(=O)c2ccc(C)cc2)C1; target = Endoplasmic reticulum lectin 1 (ERLEC1, Homo sapiens, UniProt Q96DZ1); assay = SILAC mass spectrometry; test system = SUP-T1, crude membrane fraction; setting = 10 µM, 17 h, reverse labelling; how to read = relative to: DMSO over compound; measurement = protein level ratio; value = 2.11
Compound = Cc1ccc(C(=O)Nc2cccc(C(F)(F)F)c2)cc1Nc1nc(-c2cccnc2)nc2c1cnn2C; target = Ephrin type-B receptor 4 (Mus musculus, UniProt P54761); assay = receptor phosphorylation, inhibitor; test system = mouse, lung; setting = oral, 50 mg/kg; measurement = lung tissue concentration; value = ~1 nmol/g
Compound = CC[C@H](C)[C@H](NC(=O)CNC(=O)[C@H](CCCNC(=N)N)NC(=O)[C@H](CCCCN)NC(=O)CNC(=O)[C@H](CC(N)=O)NC(=O)CNC(=O)CNC(=O)CNC(=O)[C@H](CC(C)C)NC(=O)[C@H](C)NC(=O)CNC(=O)[C@H](Cc1c[nH]c2ccccc12)NC(=O)[C@H](Cc1ccc(O)cc1)NC(=O)CNC(=O)[C@H](CCCNC(=N)N)NC(=O)[C@H](CCSC)NC(=O)CNC(=O)[C@H](CCCCN)NC(=O)[C@H](CC(N)=O)NC(=O)[C@H](Cc1ccccc1)NC(=O)[C@H](CCCCN)NC(=O)[C@@H](N)CC(N)=O)C(=O)N[C@@H](CCSC)C(=O)NCC(=O)N[C@@H](Cc1ccc(O)cc1)C(=O)N[C@@H](CC(=O)O)C(=O)O; target = Receptor tyrosine-protein kinase erbB-2 (ERBB2, Homo sapiens, UniProt P04626); assay = binding, SPR; measurement = koff; value = 0.0121 s⁻¹
